Measurements gathered from unrelated publications.
Protocols differ between the studies behind these lines. Several values in a cell are separate wells, animals, samples, runs or records. ± gives the spread as reported.
Chain of UniProt Q64663 (whole entry, unmodified, looked up): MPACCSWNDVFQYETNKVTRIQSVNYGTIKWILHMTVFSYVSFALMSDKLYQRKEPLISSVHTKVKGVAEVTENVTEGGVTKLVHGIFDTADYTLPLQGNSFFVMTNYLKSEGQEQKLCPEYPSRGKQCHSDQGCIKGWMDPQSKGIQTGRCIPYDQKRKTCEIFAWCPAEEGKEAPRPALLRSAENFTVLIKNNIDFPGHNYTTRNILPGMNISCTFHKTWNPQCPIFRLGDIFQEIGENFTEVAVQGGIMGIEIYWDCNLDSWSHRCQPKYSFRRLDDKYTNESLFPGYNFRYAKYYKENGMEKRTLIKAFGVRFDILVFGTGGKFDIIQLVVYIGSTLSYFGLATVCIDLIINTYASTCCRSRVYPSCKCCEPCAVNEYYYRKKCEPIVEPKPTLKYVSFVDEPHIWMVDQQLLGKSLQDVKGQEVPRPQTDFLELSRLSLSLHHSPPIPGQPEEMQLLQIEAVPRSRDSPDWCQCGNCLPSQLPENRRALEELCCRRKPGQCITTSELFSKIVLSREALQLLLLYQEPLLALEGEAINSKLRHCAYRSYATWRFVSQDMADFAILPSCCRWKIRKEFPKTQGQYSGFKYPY
Chain of UniProt Q16774 (whole entry, unmodified, looked up): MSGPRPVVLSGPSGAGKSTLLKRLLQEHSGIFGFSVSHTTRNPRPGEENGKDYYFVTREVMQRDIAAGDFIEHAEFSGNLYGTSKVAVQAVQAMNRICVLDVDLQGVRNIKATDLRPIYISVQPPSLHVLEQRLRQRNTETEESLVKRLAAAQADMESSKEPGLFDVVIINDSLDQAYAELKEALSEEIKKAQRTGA
Chain of UniProt P51575 (whole entry, unmodified, looked up): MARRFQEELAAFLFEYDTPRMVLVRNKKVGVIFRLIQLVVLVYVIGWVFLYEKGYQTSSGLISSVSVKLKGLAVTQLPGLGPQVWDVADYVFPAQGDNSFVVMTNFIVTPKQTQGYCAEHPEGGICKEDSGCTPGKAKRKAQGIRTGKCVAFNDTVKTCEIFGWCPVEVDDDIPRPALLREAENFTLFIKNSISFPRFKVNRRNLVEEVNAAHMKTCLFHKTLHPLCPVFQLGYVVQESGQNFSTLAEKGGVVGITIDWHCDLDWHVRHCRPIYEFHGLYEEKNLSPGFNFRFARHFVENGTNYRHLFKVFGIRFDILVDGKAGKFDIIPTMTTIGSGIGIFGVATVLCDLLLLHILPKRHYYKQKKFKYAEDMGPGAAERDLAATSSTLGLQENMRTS
Chain of UniProt P20393 (whole entry, looked up): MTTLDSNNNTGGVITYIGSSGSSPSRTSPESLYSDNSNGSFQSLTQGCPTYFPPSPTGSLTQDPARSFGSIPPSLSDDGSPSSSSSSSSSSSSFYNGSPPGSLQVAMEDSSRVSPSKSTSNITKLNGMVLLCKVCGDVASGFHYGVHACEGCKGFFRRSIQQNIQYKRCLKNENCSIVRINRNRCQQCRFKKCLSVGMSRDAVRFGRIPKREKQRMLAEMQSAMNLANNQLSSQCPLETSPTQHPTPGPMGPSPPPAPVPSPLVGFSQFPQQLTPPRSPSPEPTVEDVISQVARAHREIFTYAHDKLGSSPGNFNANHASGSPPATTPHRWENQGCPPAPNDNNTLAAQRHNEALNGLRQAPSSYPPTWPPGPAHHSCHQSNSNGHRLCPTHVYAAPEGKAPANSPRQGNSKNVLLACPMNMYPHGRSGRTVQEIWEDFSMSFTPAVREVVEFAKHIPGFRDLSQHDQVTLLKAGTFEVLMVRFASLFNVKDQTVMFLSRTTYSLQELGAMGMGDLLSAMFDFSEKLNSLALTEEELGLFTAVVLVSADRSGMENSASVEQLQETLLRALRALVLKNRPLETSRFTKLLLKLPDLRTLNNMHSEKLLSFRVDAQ
Chain of UniProt Q13255 (whole entry, looked up): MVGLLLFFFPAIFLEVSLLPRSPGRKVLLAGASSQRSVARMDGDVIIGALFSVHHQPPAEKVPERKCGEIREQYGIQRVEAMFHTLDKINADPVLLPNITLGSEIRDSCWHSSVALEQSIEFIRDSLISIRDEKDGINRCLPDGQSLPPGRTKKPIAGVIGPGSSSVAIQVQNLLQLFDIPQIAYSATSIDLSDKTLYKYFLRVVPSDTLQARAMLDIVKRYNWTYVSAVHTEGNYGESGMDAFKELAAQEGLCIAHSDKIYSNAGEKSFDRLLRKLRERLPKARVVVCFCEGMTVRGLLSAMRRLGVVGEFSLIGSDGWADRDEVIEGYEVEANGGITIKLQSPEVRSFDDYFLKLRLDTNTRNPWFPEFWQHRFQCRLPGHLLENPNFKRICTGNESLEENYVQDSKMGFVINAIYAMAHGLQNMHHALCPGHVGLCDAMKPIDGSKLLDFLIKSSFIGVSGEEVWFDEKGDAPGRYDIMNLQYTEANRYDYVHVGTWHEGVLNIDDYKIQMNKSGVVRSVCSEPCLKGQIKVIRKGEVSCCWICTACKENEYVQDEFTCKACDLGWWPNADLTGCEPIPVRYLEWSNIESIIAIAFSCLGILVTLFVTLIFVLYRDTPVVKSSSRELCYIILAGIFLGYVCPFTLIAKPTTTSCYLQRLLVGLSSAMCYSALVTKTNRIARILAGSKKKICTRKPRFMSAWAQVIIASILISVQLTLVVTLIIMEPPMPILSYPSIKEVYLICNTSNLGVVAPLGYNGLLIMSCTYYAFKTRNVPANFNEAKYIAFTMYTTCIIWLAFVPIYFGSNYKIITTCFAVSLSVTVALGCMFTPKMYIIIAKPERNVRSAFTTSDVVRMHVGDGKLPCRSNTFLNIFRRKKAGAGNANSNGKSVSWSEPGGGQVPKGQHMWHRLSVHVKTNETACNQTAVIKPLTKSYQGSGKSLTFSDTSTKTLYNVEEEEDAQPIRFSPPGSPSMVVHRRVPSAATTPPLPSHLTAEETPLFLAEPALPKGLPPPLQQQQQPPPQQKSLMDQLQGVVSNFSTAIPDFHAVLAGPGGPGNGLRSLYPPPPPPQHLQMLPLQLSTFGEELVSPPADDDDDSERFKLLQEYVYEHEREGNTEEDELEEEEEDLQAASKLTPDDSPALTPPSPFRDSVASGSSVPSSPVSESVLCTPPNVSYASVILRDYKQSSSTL
Chain of UniProt P48147 (whole entry, looked up): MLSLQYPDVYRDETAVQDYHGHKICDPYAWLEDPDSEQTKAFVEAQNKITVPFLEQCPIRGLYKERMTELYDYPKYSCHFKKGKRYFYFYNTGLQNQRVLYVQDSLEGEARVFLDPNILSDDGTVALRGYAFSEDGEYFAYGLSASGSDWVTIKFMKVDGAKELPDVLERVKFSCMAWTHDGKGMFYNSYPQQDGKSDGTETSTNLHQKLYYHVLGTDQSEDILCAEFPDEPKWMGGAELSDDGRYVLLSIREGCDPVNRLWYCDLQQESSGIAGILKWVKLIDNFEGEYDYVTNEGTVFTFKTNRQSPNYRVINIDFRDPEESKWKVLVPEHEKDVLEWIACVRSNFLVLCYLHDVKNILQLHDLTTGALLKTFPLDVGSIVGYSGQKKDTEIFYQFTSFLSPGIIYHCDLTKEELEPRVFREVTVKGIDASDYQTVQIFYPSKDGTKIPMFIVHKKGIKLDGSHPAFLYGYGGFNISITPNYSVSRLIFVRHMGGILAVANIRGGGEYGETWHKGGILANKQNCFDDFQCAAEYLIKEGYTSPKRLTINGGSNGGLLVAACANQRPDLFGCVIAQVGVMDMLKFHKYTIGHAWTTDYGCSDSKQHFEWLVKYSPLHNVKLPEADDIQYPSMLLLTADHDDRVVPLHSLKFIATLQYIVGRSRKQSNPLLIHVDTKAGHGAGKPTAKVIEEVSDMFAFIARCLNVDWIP
Chain of UniProt Q86XQ3 (whole entry, looked up): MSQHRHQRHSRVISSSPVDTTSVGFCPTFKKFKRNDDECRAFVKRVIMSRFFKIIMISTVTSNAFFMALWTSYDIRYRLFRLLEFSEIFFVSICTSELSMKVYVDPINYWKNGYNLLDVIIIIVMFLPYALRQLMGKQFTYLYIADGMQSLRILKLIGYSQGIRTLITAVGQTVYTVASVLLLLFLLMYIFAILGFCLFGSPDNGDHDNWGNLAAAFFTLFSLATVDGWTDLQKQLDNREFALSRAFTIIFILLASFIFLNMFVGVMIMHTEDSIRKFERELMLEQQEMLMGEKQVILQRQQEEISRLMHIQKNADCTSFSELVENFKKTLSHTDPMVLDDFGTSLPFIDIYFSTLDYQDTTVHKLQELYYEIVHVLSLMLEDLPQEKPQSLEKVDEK
Chain of UniProt Q15208 (whole entry, looked up): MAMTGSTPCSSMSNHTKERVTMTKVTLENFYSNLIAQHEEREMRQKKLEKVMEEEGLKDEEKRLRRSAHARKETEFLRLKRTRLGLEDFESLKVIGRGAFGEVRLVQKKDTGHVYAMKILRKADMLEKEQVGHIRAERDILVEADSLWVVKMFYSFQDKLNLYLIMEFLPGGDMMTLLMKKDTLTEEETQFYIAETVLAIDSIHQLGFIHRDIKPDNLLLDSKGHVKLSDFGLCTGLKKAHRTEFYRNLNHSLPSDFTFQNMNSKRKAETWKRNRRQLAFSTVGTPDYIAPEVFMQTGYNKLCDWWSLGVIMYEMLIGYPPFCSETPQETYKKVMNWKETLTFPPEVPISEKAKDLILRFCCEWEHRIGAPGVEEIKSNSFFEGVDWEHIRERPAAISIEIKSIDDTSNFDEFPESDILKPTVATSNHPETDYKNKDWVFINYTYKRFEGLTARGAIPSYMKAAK
Chain of UniProt P00441 (whole entry, unmodified, looked up): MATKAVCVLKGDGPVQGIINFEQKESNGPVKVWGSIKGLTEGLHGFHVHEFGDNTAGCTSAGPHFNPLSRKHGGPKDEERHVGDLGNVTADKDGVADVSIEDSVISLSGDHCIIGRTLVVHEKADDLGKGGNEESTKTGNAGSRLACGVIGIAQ

| SMILES | tested on | assay | system | setting | how to read | measurement | value |
| --- | --- | --- | --- | --- | --- | --- | --- |
| Nc1ncnc2c1ncn2[C@@H]1O[C@H](CSCC[C@H](N)C(=O)O)[C@@H](O)[C@H]1O | DNA adenine methyltransferase CamA (Clostridioides difficile, UniProt Q183J3) | ITC |  | concentration not given, with: 50 µM DNA | baseline: without DNA | cofactor binding decrease | ~2 |
| CCCCCCCCCCCCCCCC(=O)NCCO | SIRT6 (Homo sapiens, UniProt Q8N6T7) | enzyme activity, activator, HPLC-MS |  | 10 µM, 30 min, 37 °C, 1% DMSO, with: H3K9Ac peptide 40 µM with NAD 500 µM | baseline: no compound | deacetylation fold increase | 2 fold |
| Nc1ncnc2c1ncn2[C@@H]1O[C@H](COP(=O)(O)CP(=O)(O)OP(=O)(O)O)[C@@H](O)[C@H]1O | P2X purinoceptor 1 (P2RX1, Homo sapiens, UniProt P51575, R139P) | saturation binding | HEK293 | 25 nM |  | specific binding | 492 CCPM and 454 CCPM |
| C[N+](C)(C)CC(=O)O | SAR11_0797 protein (Candidatus Pelagibacter ubique) | isothermal titration calorimetry |  | concentration not given |  | binding | no binding |
| COc1cc(C(=O)NS(=O)(=O)c2ccccc2C)ccc1Cc1cn(C)c2ccc(NC(=O)OC3CCCC3)cc12 | Volume-regulated anion channel subunit LRRC8C, part LRRC8A IL1 chimera (LRRC8C, Homo sapiens, UniProt Q8TDW0, C43G) | ion current, inhibitor, whole-cell patch clamp | HCT LRRC8-/- cells | 3 µM, +100 mV |  | inhibition | 48.8% and 47% and 31.7% and 65.3% and 66.8% and 71% |
| CN1CCC(CNc2ccc3ncc(-c4cccc(OC(F)(F)F)c4)n3n2)CC1 | HTR1B (Homo sapiens, UniProt P28222) | cAMP, agonist |  | 10 µM | baseline: control | activation | > 50% |
| CC[C@@H](C)[C@@H](NC(=O)[C@@H](Cc1ccc(O)cc1)NC(=O)[C@H]1CCCN1C(=O)[C@@H](CCCNC(=N)N)NC(=O)[C@H](N)Cc1c[nH]cn1)C(=O)N[C@H](C)C(=O)N[C@H](Cc1c[nH]cn1)C(=O)N[C@H](CCCNC(=N)N)C(=O)N[C@@H](C(=O)N[C@H](Cc1ccc(O)cc1)C(=O)N[C@H](CO)C(=O)N[C@H](Cc1ccccc1)C(N)=O)C(C)C | Transferrin receptor protein 1 (Tfrc, Mus musculus, UniProt Q62351) | flow cytometry | RAW264.7 | 24 h, pH 7.4, unit not given | baseline: 0 h | surface TFRC expression | 0.963 |
| C=C1C(=O)O[C@@H]2C[C@@]3(C)CCCC(=C)[C@@H]3C[C@H]12 | NR1D1 (Homo sapiens, UniProt P20393) | reporter gene, Gal4 hybrid reporter |  | 10 µM | baseline: vehicle | activation | 1.23 fold |
| CC(C)[C@H](NC(=O)[C@H](Cc1ccc(O)cc1)NC(=O)[C@H](Cc1ccc(O)cc1)NC(=O)[C@@H]1CCCN1C(=O)[C@H](CCC(=O)O)NC(=O)[C@H](CCC(=O)O)NC(=O)[C@H](Cc1c[nH]c2ccccc12)NC(=O)[C@@H]1CCCN1C(=O)[C@@H](NC(=O)[C@H](CCC(N)=O)NC(=O)c1ccc2c(c1)C(=O)OC21c2ccc(O)cc2Oc2cc(O)ccc21)C(C)C)C(=O)N[C@H](C(=O)N[C@@H](CCCCN)C(=O)N[C@@H](CCCCN)C(=O)N[C@@H](CO)C(=O)N[C@@H](CO)C(=O)NCC(=O)NCC(N)=O)C(C)C |  |  | human, plasma | intravenous infusion, 600 mg, 8 h |  | plasma concentration | 21.1 ng/mL |
| Cc1c(Cl)c(=O)oc2cc(OCCCCSC#N)ccc12 | CA12 (Homo sapiens, UniProt O43570) | stopped-flow CO2 hydration |  |  | baseline: Ki CA I over Ki CA XII | selectivity ratio | > 1690 |
| O=c1cc(-c2ccc([N+](=O)[O-])cc2)[nH]c2c(-c3ccc(Cl)cc3)c(Cc3ccccc3)nn12 | PDZ domain-containing protein GIPC1 (GIPC1, Homo sapiens, UniProt O14908) | thermal stability, binder, thermal proteome profiling | RD, cell lysate | 50 µM, 0.5% DMSO | baseline: DMSO vehicle | melting temperature shift | 2.7 °C |
| CC(C(=O)Nc1c(F)cccc1F)N1CCN(c2ccccc2)CC1 (stereo not drawn) | TRPC6 (Homo sapiens, UniProt Q9Y210) | ion current, GCaMP6 calcium imaging | HEK293 transfected | 20 µM, unit not given, with: 50 µM OAG | baseline: control | peak Ca2+ influx | 1.38 ± 0.09 |
| CC[C@@H]1[C@H](F)C(=O)N[C@@H]1COc1nccc2cc(C(N)=O)c(OC)cc12 | IRAK3 (Homo sapiens, UniProt Q9Y616) | ATP-site probe binding, ActivX profiling | THP-1 cell lysate | 0.04 mM, Lys1 site |  | inhibition | 31.1% |
| O=C(COP(=O)(O)O)[C@@H](O)[C@H](O)[C@H](O)COP(=O)(O)O | Beta-actin-like protein 2 (ACTBL2, Homo sapiens, UniProt Q562R1) | thermal proteome profiling, measured: ACTBL2 | HepG2 cell lysate | concentration not given, 57 over 37 °C, mean | baseline: compound over control | thermal stability ratio | 0.698 |
| C=CC(=O)N1CCC(COCC(=O)N2CCN(c3nc(-c4cnc(N)nc4C(F)F)nc(N4CCOC[C@@H]4C)n3)CC2)CC1 | Macrophage colony-stimulating factor 1 receptor, autoinhibited (CSF1R, Homo sapiens, UniProt P07333) | KINOMEscan |  | 1 µM |  | remaining binding | 29% |
| O=C1CCC(N2C(=O)C=C(Nc3cccc(C4CCN(CCc5ccc(C(F)(F)F)c(Cl)c5)CC4)c3)C2=O)C(=O)N1 (stereo not drawn) | ZBTB11/CRBN (Homo sapiens, UniProt O95625+Q96SW2) | protein degradation, degrader, HiBiT luminescence | MOLT-4 |  |  | Dmax | 34% |
| Cc1cc(-c2ccnc3[nH]cc(F)c23)cc(F)c1[C@@]1(O)[C@H](C)CN(C2CCS(=O)(=O)CC2)C[C@@H]1C | STK38 (Homo sapiens, UniProt Q15208) | ATP probe binding, KiNativ, measured: Lys1 site | HEK293T cell lysate | 0.1 µM |  | inhibition | 7.8% |
| C#CCOc1ccccc1N1CCN(C(=O)c2cccc(S(=O)(=O)n3cnc(C4CC4)n3)c2)CC1 | AKR1C3 (Homo sapiens, UniProt P42330) | label-free chemoproteomics LC-MS/MS, measured: Tyr24 | COLO 205 | 100 µM, 4 h, 37 °C |  | probe-modified peptide count | 520 PSMs |

| SMILES | tested on | assay | system | setting | how to read | measurement | value |
| --- | --- | --- | --- | --- | --- | --- | --- |
| Nc1ncnc2c1ncn2[C@@H]1O[C@H](COP(=O)(O)OP(=O)(O)OP(=O)(O)O)[C@@H](O)[C@H]1O | P2X purinoceptor 7 (P2rx7, Rattus norvegicus, UniProt Q64663, Q143A/R125A) | ion current, agonist, two-electrode voltage clamp | Xenopus laevis oocytes | 166 µM | baseline: highest concentration response | normalized current | 0.772 and 0.908 and 0.654 |
| COc1cc(NC(=O)c2cscn2)ccc1/N=N/c1ccccc1Cl | GRM1 (Homo sapiens, UniProt Q13255) | positive allosteric modulator, IP accumulation | HEK293 | 30 µM, in the dark, with: low-dose orthosteric agonist |  | activation | -4.43% |
| O=C(O)c1ccc(Nc2ncc3c(n2)-c2ccc(Cl)cc2C(c2c(F)cccc2F)=NC3)cc1 | human PASK(h) | kinase activity |  | 1 µM |  | remaining activity | 114% |
| CC(=O)Nc1ccc(O)cc1 | BRD4 (Homo sapiens, UniProt O60885) | 19F NMR, measured: tyrosine 119 |  | 95 µM | baseline: free protein | chemical shift change | 0.043 ppm |
| Nc1ncnc2c1ncn2[C@@H]1O[C@H](CO[P@](=O)(O)O[P@](=O)(O)O[P@@](=O)(O)S)[C@@H](O)[C@H]1O | GUK1 (Homo sapiens, UniProt Q16774) | ITC |  | molar ratio 0.4975 |  | ΔH | -1.54 kcal/mol |
| O=c1nc(SCc2cc(F)cc(C(F)(F)F)c2)nc(SCc2ccc3sccc3c2)[nH]1 | TOP2A (Homo sapiens, UniProt P11388) | DNA cleavage |  | 31.25 µM, with: etoposide 50 µM |  | linear DNA | 22.8% |
| Cc1cc(Nc2ccc(S(F)(F)(F)(F)F)cc2)n2nc(C(C)(F)F)nc2n1 | Plasmodium falciparum |  | P. falciparum malaria patients | oral, 250 mg |  | patients with gastrointestinal disorders | 36.4% |
| O=c1c2ccccc2c(Cc2ccc(Cl)cc2)nn1C1CCCNCC1 (stereo not drawn) | CatSper channel complex (Homo sapiens, UniProt Q7RTX7+Q86XQ3+Q8NEC5+Q96P56) | ion current, whole-cell patch clamp | human sperm | 10 µM, at +80 mV |  | outward current density | 0.1 ± 1.4 pA/pF |
| CC1=C(/C=C/C(C)=C/C=C/C(C)=C/C=O)C(C)(C)CCC1 | Rhodopsin (RHO, Bos taurus, UniProt P02699, G270F) | retinal release, Trp FRET | lipid bicelles | 28 °C, G270F mutant | baseline: wild-type rhodopsin | relative koff | 1.91 ± 0.09 |
| COc1cccc2c(-c3ccc(CN4CCOCC4)cc3)cc(C(=O)Nc3ccc(C(=O)O)cc3)nc12 | RARG (Homo sapiens, UniProt P13631) | reporter gene, antagonist |  | up to 3300 nM, with: ATRA 8 nM (EC80) |  | IC50 | inactive |
| CSCC[C@H](N)C(=O)Nc1ccc2ccccc2c1 | rat neuron-specific aminopeptidase | substrate |  |  |  | Km | 2.9 µM |
| Cc1nn(CCc2ccccc2)c2ncc(C(=O)NCc3ccccc3F)c(Cl)c12 | PREP (Homo sapiens, UniProt P48147) | intact protein MS |  | 50 µM, 4 h, 37 °C |  | protein adduct formation | 20% |
| [H]/N=C(/N)NCC(=O)O | SLC6A6 (Homo sapiens, UniProt P31641, L306A) | binding, microscale thermophoresis |  | 3.91 µM, room temperature, with: 50 nM labelled protein | higher = more binding | normalised MST signal | 0.000278 |
| Cn1cc(-c2ccc(-c3cncc(Cl)c3N3CCC4(CCNC4=O)CC3)cc2)cn1 | COLO 205 | gene expression, microarray, measured: SLC2A5 (GLUT5) mRNA |  | concentration not given, 2 h | baseline: untreated cells | log2 fold change | -2.47 |
| Nc1nc2c(ncn2[C@@H]2O[C@H](COP(=O)(O)O)[C@@H](O)[C@H]2O)c(=O)[nH]1 | GUK1 (Homo sapiens, UniProt Q16774, R41A) | enzyme activity, NADH-coupled |  | 250 µM |  | reaction rate | 1.07 s⁻¹ and 0.925 s⁻¹ and 0.959 s⁻¹ |
| C=CC(=O)N1CCC(Oc2cc3c(Nc4ccc(Cl)c(Cl)c4F)ncnc3cc2OC)CC1 |  | substrate, measured: metabolite M2 formation | rat liver microsomes |  |  | Km | 3.5 µM |
| CC(C)C[C@H](NC(=O)C[C@H](O)[C@H](CC(C)C)NC(=O)[C@H](Cc1c[nH]cn1)NC(=O)CNC(=O)[C@@H](NC(=O)[C@H](C)NC(=O)[C@H](Cc1c[nH]c2ccccc12)NC(=O)[C@H](CCC(N)=O)NC(=O)[C@@H](Cc1ccccc1)NC(=O)COCCOCCNC(=O)CCC(C(=O)O)N1CCN(CC(=O)O)CCN(CC(=O)O)CCN(CC(=O)O)CC1)C(C)C)C(N)=O (stereo partly drawn) [lutetium-177 labelled] |  |  | female BALB/c nu/nu mice, bone | intravenous, 100 pmol, 2 h, with: PA 300 µg |  | tissue uptake | 0.08 ± 0.04 %ID/g |
| [O-][S+]1CCCCS1 (stereo not drawn) | SOD1 (Homo sapiens, UniProt P00441, G94A) | intact protein LC-MS | SOD1 G93A transgenic mice, whole blood | oral, 150 mg/kg, 1 h, mean of two mice |  | target engagement | 25 % cross-linked dimer |
